Measurements from different studies.
A part holds a random share of what one study measured. Substitutions count along the parent as printed.

Series 1
Target: Sal-like protein 4, full length isoform A (SALL4, Homo sapiens, UniProt Q9UJQ4, residues 1-1053)
Sequence of UniProt Q9UJQ4 (whole entry, looked up): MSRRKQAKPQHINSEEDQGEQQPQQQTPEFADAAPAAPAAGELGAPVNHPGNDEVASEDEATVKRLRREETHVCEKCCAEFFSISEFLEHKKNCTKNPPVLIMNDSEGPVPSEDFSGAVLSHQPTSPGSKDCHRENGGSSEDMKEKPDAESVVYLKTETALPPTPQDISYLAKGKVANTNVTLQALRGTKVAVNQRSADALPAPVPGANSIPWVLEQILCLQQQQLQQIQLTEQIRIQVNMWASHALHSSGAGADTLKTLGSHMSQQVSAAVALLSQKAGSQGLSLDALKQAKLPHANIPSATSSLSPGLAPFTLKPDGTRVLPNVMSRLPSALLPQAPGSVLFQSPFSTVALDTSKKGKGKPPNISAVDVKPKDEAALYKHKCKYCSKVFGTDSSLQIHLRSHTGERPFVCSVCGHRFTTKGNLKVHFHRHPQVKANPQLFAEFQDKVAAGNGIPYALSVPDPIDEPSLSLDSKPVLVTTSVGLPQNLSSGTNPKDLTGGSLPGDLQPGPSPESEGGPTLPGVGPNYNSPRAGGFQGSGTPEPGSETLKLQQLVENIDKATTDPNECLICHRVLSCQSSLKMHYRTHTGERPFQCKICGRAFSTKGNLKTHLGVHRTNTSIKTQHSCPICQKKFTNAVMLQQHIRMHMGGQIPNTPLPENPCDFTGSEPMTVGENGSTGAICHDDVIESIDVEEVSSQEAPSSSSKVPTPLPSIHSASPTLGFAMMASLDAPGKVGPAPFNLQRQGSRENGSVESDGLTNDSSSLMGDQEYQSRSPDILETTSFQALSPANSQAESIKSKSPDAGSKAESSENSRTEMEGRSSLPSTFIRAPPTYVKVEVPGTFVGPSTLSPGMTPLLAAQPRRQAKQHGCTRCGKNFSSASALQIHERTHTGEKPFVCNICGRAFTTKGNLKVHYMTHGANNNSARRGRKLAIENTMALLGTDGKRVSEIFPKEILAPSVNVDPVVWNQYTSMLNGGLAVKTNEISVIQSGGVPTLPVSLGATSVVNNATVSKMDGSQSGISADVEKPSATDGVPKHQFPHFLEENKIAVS
Method: universal PBM
Form: double-stranded DNA, one strand shown
Medium: in vitro
Tested at: 600 nM
Setting: 8-mer, flanks averaged, mean of replicates
Reading: higher = stronger binding
Sequence | E-score
CGTAACAC | 0.1
GACGTAAA | 0.00762
AGTGACCA | -0.098
ACGTGCGG | -0.191
CCAATACA | 0.216
AGCCTCGA | -0.132
GATACAAA | 0.241
GAACGAAA | 0.0603
ATAGACCC | 0.109
CCACCCTC | -0.175
CGCCCCGA | -0.325
AATGATCT | 0.203
AAGAACTC | 0.0934
AACCGCAC | -0.189
CACCTAAA | -0.011
AACTATAG | 0.266
GCTCCTGA | -0.292
GAGGCAAA | 0.057
CGTATTAC | 0.184
CCTTTTCA | 0.116

Series 2
Target: CREB3L2, bZIP domain (human)
Method: DHFR protein complementation
Medium: yeast
Setting: single substitutions, most at no-binding floor
Baseline: wild-type JUN-FOS pair
Reading: higher = stronger binding
Parent: JUN, bZIP domain (human); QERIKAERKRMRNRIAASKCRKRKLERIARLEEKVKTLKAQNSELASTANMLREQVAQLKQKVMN; partner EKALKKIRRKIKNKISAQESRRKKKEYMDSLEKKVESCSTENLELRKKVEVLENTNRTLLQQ
Change | binding fitness [natural log]
A49L | -1.38
E32S | -1.54
K36G | -1.46
V56T | -1.51
V35H | -1.55
S43A | -1.41
K39Q | -1.36
A40C | -1.51
E44W | -1.5
L45D | -1.56
I28P | -1.55
I28A | -1.46
S47T | -1.5
K36A | -1.35
M51V | -1.54
L31D | -1.53
A57G | -1.49
A40M | -1.61
I28T | -1.5
K34Q | -1.39
M51D | -0.972

Series 3
Target: Histone acetyltransferase KAT6A, winged helix 2, GST fusion (KAT6A, Homo sapiens, UniProt Q92794, residues 85-181)
Method: protein binding microarray
Form: double-stranded DNA, one strand shown
Medium: in vitro
Tested at: not given
Setting: 8-mer, flanks averaged, mean of 2 arrays, mostly near background
Baseline: not given
Reading: higher = stronger binding
Target sequence (chain): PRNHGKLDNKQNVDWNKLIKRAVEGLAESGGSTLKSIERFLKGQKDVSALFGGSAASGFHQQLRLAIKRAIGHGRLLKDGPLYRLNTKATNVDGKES
Sequence | E-score
GATCTCAC | -0.0126
ATAGGTAA | -0.0984
GTTACTCA | 0.0508
AGACTTTA | -0.124
AGCTCACA | 0.0967
AACATCGA | -0.0861
CGATCAGA | 0.0289
AAACGATG | -0.0783
CACTCGAG | 0.128
CCCCACAC | 0.0204
AACCCCTC | -0.238
CTGGCCAC | -0.0341
ATAGCCGC | -0.0263
AGCTAAGG | -0.0783
GTATCTAA | -0.0982
AGACATAA | -0.135
CCGTTCGA | 0.149
GATTACCA | -0.123
CTTATTGC | -0.103
AACAGTAA | -0.151
ACTCGATA | -0.162
TACCTGAA | -0.00017
CTACTGCC | -0.13
CCACCGTC | -0.115
AAGCCGAC | 0.134

Series 4
Target: CCNA1, cyclin fold, Cln2 fusion (human)
Method: yeast growth competition, sequencing
Medium: yeast
Setting: weak parent motif
Baseline: not given
Reading: higher = stronger binding
Parent: RB1 docking peptide (human); PKPLKKLRFDIEG; partner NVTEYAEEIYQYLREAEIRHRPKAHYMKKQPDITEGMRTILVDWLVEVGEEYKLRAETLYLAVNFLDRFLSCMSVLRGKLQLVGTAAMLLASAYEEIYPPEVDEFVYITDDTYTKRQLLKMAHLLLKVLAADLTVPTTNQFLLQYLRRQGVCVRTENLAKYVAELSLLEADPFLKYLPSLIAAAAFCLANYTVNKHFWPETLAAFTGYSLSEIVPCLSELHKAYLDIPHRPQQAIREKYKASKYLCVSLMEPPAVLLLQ
Change | normalised enrichment score
K6I | 0.528
P3D | 0.25
K6V | 0.387
R8Y | 0.234
K6P | 0.177
P3E | 0.54
E12T | 0.577
R8L | -0.0381
K5S | 0.571
P1G | 0.156
K2V | 0.591
D10R | 0.718
R8H | 0.448
I11M | 0.048
R8N | 0.556
R8G | -0.118
K2E | 0.138
L4H | 0.0586
P3R | 0.363
E12P | 0.445
D10E | -0.129
P1S | 0.0996
K6G | 0.3
D10W | 0.221
R8T | 0.487

Series 5
Target: RING finger protein unkempt homolog, zinc fingers 1-6, GST-SBP tag (UNK, Homo sapiens, UniProt Q9C0B0, residues 30-357)
Method: RNA Bind-n-Seq
Form: RNA
Medium: in vitro
Tested at: not given
Setting: RNA with constant flanks, human and mouse sites, ends assumed
Baseline: input RNA pool
Reading: higher = stronger binding
Construct (chain): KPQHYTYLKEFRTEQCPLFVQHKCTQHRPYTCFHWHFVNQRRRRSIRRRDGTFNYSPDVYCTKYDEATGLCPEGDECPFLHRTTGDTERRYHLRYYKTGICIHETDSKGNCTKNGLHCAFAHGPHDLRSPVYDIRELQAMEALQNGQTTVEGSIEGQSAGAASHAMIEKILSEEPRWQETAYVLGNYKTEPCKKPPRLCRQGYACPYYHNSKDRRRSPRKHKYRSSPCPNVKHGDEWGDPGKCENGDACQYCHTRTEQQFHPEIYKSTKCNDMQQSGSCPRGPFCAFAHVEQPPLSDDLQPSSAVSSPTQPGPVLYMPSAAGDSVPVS
Sequence | bound/input enrichment [ratio]
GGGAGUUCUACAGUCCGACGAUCCAUAAGCAUGAUUUGGAUCUUAUAUGUAGAGCCCAUCAGGUGGUUGAAGAUGGCUAUGAGUUUUUUGCAAAGAGGCAGUUAGUCACUCUGUUUUCUGCACCCAACUACUGUGGCGAGUUUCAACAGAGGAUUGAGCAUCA | 0.144
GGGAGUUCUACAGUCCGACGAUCGCAUUAACAAACAAGGUACAAAUGACCUCUCCGAGCAGCACUGGCAGUCCCAUGUUUAAAUUUUCAUCUCCAAUCGUAAAAUCUACUGAGGCAAAUGUACUACCUCCAUCAUCUAUUGGACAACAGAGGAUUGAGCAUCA | 0.277
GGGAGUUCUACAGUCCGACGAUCGGGAGGAAUGAAUUUAUCUAGCAAGCUGGCCCAGCUCACUUGUCAUGGCAAUCUUUGCCAUAGCUUUCAGUCUUUCAACACUUCCUACACAGAUACAGGAUUAUGGGGACUGUAUAUGGUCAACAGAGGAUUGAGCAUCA | 0.324
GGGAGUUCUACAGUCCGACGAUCGUUCUCAGUAGUCCGAACUCUAAUAUGAGCAGCAUGGUAGUUACAGCCAAUGGUAAUGAUAGUAAAAAAUUUAAAGGAGAAGAUAAAAUGGAUGGUGCUCCUUCUCGUGUACUUCAUAUUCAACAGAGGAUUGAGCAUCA | 15.9
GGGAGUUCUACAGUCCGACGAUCACGUGCUUAAUCCUGGUGCAGGGGGCGAGCAUGGCCGCUCCGCGAGUAUUCCCACUUUCCUGUGCGGUGCAGCAGUAUGCCUGGGGGAAGAUGGGUUCCAACAGCGAAGUGGCGCGGCUGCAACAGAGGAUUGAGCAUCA | 0.283
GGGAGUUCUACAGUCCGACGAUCGAAGAUGACUCUCAAGAAGAGGAAGAAGUCAGCCUACCCAAACGAGGAAGACCACAAGUUAGAUUGCCAGUUAAAACAAGAGGGAAACUUAGCUCUUCUUUCUCAAGUCGUGGCCAACAACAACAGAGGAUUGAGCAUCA | 0.27
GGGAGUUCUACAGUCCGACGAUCCACCGUUUCCUUGUCUAUAAUCCUCUCUCCUUCUGUUUAACUCAUACACGAGCUUCCUUCACUUACCGUCUGCUGUGCUCUGACGUCACAGCAUUUACCGUUUGGUCAGCUGGGAUGCUGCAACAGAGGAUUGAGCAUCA | 0.344
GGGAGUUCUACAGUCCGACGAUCGCAGUUACCAGUUUCAGCAGGCUUUGCUUUUAUACUGUUGUGAAAUUUCAUCUCUCUGUGUAGCACCUUCCUUUUUUCCAUUGUAGAUAUAAAAAGUGACUUUUGCCUCAUGAAAGAGUUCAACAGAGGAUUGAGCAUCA | 1.64
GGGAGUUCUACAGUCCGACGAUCUUGCUGAUGACUUCUUGUGGCAUUUCACACUGUAGAUGGUCACUGCCUCUCAUGUCCAUGUUAGCUAAUGGUGUAAGAUGAUGUCUUGUCAGUAUUACUGUUUUGCUAAGCUGCUUCAUUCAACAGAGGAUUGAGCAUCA | 0.0808
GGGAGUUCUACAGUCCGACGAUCUGGACUGGGGAGUGGCCUGAGACGGAAAUCGUUGCUAAUCUGUGGAUGAAGCAGCCUGAUGCGGCCAGGAAGGAGAGCGAGUUCCUGCUAAACUCUUGUCCGGAGCGACUGCUAGGCCACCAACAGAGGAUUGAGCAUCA | 0.088
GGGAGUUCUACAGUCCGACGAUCCUCCAGGUUCCAGUAAAAUUCUUCUGACCGAAACCAAUGUGGGUGUUAGAAAAAUUACCAUAUAGCUUAAUAUGUUUAUUAGUUCUCUUUGGAAAAAAACUACCACUGUGGUCUUAAAAGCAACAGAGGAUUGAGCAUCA | 2.06
